Experimental data gathered from unrelated publications.
Each numbered part is a random draw from the data of one study; scales do not carry over between parts.

Block 1
Target: PABPC1L2, full length, GST fusion (mouse, UniProt A0ABA7IW68)
Technique: RNAcompete
Molecule type: RNA
Medium: in vitro
Tested at: 20 nM
Notes: 7-mer, probes averaged, single round
Baseline: mean of 7-mers
Direction: higher = stronger binding
Measurement: 7-mer Z-score
Residues (chain): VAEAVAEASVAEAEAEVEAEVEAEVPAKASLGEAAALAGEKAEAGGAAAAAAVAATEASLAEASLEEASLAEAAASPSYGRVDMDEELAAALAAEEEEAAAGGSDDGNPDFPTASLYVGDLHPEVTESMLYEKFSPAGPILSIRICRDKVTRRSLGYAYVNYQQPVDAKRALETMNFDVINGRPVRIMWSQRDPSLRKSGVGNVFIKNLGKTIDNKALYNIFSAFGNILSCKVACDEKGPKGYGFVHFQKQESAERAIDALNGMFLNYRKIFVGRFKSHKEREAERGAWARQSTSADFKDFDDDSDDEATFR
GGUAAUG: 0.0352
CAUGUUU: -0.427
CUGGGAU: 0.0189
CAUACUU: -0.257

Block 2
Target: Histone acetyltransferase KAT6A, both winged helices, GST fusion (KAT6A, Homo sapiens, UniProt Q92794, residues 1-181)
Technique: protein binding microarray
Molecule type: double-stranded DNA, one strand shown
Medium: in vitro
Tested at: not given
Notes: 8-mer, flanks averaged, mean of 2 arrays, mostly near background
Baseline: not given
Direction: higher = stronger binding
Measurement: E-score
Target sequence (chain): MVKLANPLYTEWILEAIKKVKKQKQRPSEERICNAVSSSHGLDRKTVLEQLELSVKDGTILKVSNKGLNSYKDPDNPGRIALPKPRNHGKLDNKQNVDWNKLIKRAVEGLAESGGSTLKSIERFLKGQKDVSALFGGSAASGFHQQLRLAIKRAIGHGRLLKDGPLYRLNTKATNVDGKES
ACCAATCG: -0.0885
GCCTCCAC: -0.0602
ACAAATTA: 0.0125
ATTCCAAA: -0.104
GAGCAAAC: -0.179
GCAAAGTA: -0.12
ACTATCTA: -0.0341
CTATCGTA: 0.00352
GCGCTCCA: 0.211
AGGCTCAG: -0.176
ACCAAACC: -0.0307

Block 3
Target: Centromere-binding protein 1, full length, His-tagged (CBF1, Saccharomyces cerevisiae, UniProt P17106, residues 1-351)
UniProt P17106, sequence (whole entry, looked up): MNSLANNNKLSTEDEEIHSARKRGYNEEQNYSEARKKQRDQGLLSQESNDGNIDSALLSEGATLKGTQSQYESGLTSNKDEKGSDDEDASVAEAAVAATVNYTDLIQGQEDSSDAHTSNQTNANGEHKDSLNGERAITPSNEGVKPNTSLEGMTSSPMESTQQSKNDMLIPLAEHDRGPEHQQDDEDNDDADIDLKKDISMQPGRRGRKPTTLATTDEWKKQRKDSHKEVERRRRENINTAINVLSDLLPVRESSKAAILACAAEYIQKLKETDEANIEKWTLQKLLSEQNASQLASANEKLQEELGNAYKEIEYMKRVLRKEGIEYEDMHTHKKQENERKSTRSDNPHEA
Technique: competition protein-binding microarray
Molecule type: double-stranded DNA, one strand shown
Medium: in vitro
Tested at: 2 µM
Notes: whole 60-bp probe, lowest competitor level
Together with: Pho4 competitor, 0.05 µM
Direction: higher = stronger binding
Measurement: fluorescence intensity
GTCTTGTCTCATTGTGCCGTGGGTGTCCCCACTTCAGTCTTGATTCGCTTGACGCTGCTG: 101 a.u.
AAATTACTAAGTTAGCACGTGTTTTACCCCGTATGAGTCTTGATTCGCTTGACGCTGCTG: 2300 a.u.
CGTCCTAGTGATTGTCACGCAACTTCCATGAGGAAGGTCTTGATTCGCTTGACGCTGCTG: 152 a.u.
GACCTCGTTATGGACAACGTGGTCGCTAGGGGTGGTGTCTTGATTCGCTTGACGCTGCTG: 138 a.u.
AAGATAATGCTTTCACACGTGCAAAATAAAATAGTAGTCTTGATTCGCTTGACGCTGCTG: 2570 a.u.

Block 4
Target: Interferon regulatory factor 3, full length, phosphomimetic (IRF3, Homo sapiens, UniProt Q14653, residues 1-427, S386D/S396D/S398D/S402D/T404D/S405D)
Technique: protein-binding microarray
Molecule type: double-stranded DNA, one strand shown
Medium: in vitro
Tested at: 2540 nM top
Notes: 60-bp whole probe
Together with: salmon DNA 0.4 mg/ml
Baseline: random background probes
Direction: higher = stronger binding
Measurement: fitted relative affinity
Shared flanks, not repeated: GCCTAGCAC … GTCTTGATTCGCTTGACGCTGCTG
Construct (chain): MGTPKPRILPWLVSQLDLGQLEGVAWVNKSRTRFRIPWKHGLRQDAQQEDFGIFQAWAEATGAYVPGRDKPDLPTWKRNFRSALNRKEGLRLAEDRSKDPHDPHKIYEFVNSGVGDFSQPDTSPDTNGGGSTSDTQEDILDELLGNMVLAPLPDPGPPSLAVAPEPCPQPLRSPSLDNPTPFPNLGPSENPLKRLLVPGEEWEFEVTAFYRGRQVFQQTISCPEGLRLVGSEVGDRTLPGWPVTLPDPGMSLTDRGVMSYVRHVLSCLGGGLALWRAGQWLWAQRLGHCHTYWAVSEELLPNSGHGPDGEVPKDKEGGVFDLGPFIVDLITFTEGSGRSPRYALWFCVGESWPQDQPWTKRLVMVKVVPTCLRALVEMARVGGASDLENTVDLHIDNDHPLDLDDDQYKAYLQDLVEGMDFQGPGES
CATTCTCTGTTTATGTCTGGGTGCTAG: 5.48 z-score
GACGGTCTCCTACTGATGACGTGCTAG: 1.02 z-score
TTAGGACTGGACTTTCGGTCAGTGCTA: 0.198 z-score
GACGGACTGCTACGGCTGACGTGCTAG: -0.651 z-score
TTAGGTTTCCTTATCCTTAAGTGCTAG: 8.5 z-score

Other studies, line by line
PhoQ, residues 284 288 289 292 302 303 TVTVVA
fold induction (PhoP, residues 12 14 15 18 19 LWHVM (Escherichia coli, UniProt P23836); Sort-seq, item: YFP reporter; E. coli; PhoQ-PhoP variant library, together with: 10 µM Mg2+; baseline: high Mg2+ state, higher = stronger signaling): 3.08

A few entries again (block 3):
CGTCCTAGTGATTGTCACGCAACTTCCATGAGGAAGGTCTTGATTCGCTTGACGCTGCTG: 152 a.u.
